# Experimental data pooled from the literature.
# Parts stem from different laboratories: compare values within a part only.
# Sequence of UniProt Q9H2X6 (whole entry, looked up): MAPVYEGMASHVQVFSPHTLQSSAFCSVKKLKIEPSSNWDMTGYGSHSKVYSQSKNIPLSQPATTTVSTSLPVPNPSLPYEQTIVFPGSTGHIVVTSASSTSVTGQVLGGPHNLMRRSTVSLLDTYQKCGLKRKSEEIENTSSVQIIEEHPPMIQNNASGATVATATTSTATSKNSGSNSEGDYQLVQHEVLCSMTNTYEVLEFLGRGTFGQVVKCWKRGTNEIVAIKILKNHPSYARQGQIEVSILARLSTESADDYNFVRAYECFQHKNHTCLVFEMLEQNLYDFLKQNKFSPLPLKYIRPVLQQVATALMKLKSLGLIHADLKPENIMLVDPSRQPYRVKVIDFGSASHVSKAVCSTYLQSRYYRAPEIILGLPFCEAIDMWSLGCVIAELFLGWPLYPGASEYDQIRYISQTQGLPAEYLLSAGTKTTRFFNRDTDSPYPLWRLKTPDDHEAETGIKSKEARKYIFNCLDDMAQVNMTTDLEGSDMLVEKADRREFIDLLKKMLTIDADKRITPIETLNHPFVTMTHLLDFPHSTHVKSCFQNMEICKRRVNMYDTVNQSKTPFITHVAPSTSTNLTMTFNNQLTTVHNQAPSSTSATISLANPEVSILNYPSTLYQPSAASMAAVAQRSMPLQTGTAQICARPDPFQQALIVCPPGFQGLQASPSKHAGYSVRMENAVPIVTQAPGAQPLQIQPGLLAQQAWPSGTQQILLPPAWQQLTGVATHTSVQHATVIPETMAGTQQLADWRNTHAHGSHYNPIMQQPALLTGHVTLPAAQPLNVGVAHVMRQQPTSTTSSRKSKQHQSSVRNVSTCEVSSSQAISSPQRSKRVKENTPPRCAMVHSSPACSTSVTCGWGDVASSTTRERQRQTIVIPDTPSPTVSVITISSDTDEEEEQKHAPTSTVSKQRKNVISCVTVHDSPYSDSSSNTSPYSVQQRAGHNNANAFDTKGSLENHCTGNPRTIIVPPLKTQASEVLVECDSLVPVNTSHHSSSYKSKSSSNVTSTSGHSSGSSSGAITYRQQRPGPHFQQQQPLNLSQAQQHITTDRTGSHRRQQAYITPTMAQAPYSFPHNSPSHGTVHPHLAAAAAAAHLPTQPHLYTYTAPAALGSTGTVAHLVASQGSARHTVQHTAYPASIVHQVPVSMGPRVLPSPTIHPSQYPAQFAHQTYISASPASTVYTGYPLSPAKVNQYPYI
# Sequence of UniProt P20794 (whole entry, looked up): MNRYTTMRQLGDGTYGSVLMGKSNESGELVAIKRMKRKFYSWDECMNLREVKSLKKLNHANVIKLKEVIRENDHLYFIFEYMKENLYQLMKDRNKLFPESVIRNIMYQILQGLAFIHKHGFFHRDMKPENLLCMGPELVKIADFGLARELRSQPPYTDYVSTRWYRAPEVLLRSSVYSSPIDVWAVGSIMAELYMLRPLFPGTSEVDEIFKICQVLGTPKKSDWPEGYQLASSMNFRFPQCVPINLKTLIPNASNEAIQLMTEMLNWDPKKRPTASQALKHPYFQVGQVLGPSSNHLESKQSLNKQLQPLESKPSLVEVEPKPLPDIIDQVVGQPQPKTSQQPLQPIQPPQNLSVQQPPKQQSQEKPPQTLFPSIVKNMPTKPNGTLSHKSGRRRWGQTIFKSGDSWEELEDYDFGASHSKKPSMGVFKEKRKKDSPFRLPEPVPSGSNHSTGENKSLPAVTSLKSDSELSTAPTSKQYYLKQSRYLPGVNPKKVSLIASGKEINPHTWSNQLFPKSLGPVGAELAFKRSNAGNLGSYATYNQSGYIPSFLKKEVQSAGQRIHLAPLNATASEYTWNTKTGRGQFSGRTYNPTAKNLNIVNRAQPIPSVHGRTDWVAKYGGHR
# Sequence of UniProt P57078 (whole entry, looked up): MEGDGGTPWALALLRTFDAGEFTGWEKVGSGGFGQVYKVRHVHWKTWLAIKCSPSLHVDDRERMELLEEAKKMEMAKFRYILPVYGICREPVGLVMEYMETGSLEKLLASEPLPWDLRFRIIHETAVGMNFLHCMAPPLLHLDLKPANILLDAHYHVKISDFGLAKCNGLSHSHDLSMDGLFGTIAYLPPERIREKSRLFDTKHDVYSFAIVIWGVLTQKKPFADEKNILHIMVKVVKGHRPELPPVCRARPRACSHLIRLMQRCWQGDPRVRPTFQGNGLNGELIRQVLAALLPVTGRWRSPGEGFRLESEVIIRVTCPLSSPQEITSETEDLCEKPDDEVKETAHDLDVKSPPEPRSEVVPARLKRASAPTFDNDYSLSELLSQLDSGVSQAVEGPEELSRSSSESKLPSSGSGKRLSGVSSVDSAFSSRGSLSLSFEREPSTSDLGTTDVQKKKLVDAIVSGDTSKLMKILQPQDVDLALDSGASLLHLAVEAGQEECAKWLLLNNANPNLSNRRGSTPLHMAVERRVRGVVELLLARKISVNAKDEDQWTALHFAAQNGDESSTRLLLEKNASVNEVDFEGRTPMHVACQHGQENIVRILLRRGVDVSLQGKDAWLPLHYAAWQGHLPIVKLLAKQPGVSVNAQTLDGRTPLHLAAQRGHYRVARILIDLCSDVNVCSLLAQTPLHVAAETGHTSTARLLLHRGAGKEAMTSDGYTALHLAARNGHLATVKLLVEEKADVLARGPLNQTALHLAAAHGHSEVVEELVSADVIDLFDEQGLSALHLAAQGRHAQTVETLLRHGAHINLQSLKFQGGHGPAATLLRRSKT
# Sequence of UniProt P54753 (whole entry, looked up): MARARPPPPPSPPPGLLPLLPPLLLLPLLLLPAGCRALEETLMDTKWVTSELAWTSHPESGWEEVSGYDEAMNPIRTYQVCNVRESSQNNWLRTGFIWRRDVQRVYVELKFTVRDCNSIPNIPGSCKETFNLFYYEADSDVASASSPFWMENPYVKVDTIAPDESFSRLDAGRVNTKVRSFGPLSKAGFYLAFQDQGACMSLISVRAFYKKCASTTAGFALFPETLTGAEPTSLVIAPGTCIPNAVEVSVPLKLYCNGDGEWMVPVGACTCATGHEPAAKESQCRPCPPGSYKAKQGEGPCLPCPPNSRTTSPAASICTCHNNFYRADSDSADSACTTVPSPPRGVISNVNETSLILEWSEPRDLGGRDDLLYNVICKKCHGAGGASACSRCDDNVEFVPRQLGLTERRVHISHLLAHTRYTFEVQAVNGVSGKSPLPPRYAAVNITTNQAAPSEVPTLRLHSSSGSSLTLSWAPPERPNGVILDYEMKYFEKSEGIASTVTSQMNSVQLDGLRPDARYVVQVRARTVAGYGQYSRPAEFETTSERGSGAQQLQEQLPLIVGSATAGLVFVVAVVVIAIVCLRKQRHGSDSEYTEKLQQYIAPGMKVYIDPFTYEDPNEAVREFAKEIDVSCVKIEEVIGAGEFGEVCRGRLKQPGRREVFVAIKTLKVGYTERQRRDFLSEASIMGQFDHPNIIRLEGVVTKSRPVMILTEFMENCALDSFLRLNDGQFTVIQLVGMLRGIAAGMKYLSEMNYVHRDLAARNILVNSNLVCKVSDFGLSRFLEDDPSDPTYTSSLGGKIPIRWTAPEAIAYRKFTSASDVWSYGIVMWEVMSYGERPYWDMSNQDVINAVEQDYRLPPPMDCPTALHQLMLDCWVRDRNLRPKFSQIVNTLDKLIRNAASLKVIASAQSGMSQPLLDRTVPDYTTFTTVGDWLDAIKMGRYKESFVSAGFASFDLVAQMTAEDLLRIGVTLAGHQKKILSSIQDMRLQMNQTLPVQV
# Sequence of UniProt P49760 (whole entry, looked up): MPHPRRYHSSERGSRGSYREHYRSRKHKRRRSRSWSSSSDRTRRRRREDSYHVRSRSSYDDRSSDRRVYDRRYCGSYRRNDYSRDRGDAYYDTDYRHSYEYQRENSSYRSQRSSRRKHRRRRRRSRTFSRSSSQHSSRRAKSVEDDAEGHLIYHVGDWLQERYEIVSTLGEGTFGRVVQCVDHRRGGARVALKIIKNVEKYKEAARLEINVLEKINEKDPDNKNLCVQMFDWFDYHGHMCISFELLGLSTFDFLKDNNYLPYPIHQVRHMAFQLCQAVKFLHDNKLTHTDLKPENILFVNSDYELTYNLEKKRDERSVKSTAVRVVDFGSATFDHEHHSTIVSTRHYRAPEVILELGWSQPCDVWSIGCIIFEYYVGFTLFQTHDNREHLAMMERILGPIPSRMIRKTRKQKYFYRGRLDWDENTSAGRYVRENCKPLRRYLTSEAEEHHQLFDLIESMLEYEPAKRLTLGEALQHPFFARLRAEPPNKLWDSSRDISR

# Sample 1
# Target: Cyclin-dependent kinase 4, with cyclin D1 (CDK4, Homo sapiens, UniProt P11802)
# Sequence of UniProt P11802 (whole entry, looked up): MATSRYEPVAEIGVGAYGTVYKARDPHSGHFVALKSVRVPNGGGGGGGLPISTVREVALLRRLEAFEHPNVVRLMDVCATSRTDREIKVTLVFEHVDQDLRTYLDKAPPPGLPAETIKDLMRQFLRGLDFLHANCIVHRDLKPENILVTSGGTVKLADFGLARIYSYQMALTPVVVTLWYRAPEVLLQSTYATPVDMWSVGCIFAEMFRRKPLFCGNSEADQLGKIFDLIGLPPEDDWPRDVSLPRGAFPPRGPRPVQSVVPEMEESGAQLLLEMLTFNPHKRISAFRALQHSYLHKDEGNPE
# Read-out: enzyme activity
# Action: inhibitor
# Tested at: 0.5 µM
# Baseline: control
Compound,remaining activity [%]
Cn1c2ccccc2c2c3c(c4c5ccccc5n(CCC#N)c4c21)CNC3=O,27.5
OCC(O)CCON=C1C(c2c(O)[nH]c3ccccc23)=Nc2ccccc21 (stereo not shown),96.4
CCOC(=O)c1c(C)[nH]c(/C=C2\C(=O)Nc3ccccc32)c1C,103
Nc1[nH]nc2nc3ccccc3nc12,92.4
O=c1c2ccccc2[nH]c(=S)n1CCN1CCC(=C(c2ccc(F)cc2)c2ccc(F)cc2)CC1,99.6
COc1cc2ncnc(Nc3ccc(Oc4ccccc4)cc3)c2cc1OC,113
Cc1ccc(Nc2nccc(N(C)c3ccc4c(C)n(C)nc4c3)n2)cc1S(N)(=O)=O,88.4
Cc1cccc(-c2[nH]c(C(C)(C)C)nc2-c2ccc3c(c2)OCO3)n1,105
Nc1ncnc2n[nH]c(Nc3ccc(F)cc3)c12,90.3
COc1cc2nccc(Oc3ccc(NC(=S)NC(=O)c4ccccc4C)cc3)c2cc1OC,95.1
COc1ccc(C(=O)Nc2sc3c(c2C(N)=O)CCCC3)cc1OC,95.9
O=C(CCCc1ccc(-c2ccccc2F)cc1)Nc1ccc(O)cc1,102
CO[C@H]1C[C@@H]2CC[C@@H](C)[C@@](O)(O2)C(=O)C(=O)N2CCCC[C@H]2C(=O)O[C@H]([C@H](C)C[C@@H]2CC[C@@H](O)[C@H](OC)C2)CC(=O)[C@H](C)/C=C(\C)[C@@H](O)[C@@H](OC)C(=O)[C@H](C)C[C@H](C)/C=C/C=C/C=C/1C,115
O=S(=O)(c1cccc2cnccc12)N1CCCNCC1,92.2

# Sample 2
# Target: Ras GTPase-activating protein-binding protein 1, C-terminal RGG region (G3BP1, Homo sapiens, UniProt Q13283)
# Sequence of UniProt Q13283 (whole entry, looked up): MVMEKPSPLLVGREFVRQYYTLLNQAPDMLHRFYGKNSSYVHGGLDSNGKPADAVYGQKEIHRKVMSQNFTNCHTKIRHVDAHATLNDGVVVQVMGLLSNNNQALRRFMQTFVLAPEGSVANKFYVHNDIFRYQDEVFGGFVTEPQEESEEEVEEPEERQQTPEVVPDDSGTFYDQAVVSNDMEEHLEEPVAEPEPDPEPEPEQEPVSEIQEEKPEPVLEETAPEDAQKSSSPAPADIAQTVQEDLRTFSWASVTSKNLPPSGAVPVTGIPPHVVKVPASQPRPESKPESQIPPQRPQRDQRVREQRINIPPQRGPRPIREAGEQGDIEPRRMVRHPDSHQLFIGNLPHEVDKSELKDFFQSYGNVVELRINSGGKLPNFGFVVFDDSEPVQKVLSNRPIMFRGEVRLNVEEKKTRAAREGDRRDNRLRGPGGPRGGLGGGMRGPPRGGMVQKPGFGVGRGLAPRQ
# Method: RNA Bind-n-Seq
# Molecule type: RNA
# Medium: in vitro
# Tested at: 1 µM
# Setting: whole 134-nt RNA, ends assumed
# Together with: 150 mM KCl
# Baseline: input library
# Reading: higher = stronger binding
Sequence,log2 enrichment
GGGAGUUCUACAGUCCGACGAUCACCACUGCUACAGUCACCACCACCCAGGCCUCCUAUGCAGCUCAGUCUGCAUAUGGCACUCAGCCUGCUUAUCCAGCCUAUGGGCAGCAGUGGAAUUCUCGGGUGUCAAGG,-0.225
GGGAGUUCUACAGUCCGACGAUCAGUCCUGUGCUACACAUCGUAUGUACCGAAUCGGGGUUUUGGGGUUUUGGUUUUGGGAAAGUAUUAUGUUACGCCGUUCGGAUCUGCACUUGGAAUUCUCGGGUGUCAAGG,-0.88
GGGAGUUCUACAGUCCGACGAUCUGCUUCAUCGCCUUGUGCUCCUGCCCCUGGGAGCUGUGGAUCCCAGAUCCAGAUGACAGCCCACCUUGCUGGCAGGAUGCGCCAAUCCCCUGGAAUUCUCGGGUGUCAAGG,-1.05
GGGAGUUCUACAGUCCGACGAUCCAAGUCCUGUGCUACACAUCGUAUGUACCGAAUCGGGGUGGGGUGGGGAAAGGGGAAAGUAUUAUGUUACGCCGUUCGGAUCUGCACUUCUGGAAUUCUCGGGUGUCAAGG,2.61
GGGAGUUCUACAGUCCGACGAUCGCAGGAAGUAAAAACAAAUGGAAAUGCUUCGGAUAGUGGCAGGGGUGGGGGUUGCUAAGGAAAGGGUGGGAUAAAAGUGGGUAAAGAGUUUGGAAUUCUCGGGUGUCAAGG,1.45
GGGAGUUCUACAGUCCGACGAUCGAAGAUUGGCUUAAAAUGGCUACUGUGAUGGGAACAGUGUCUUAGGGAGAUGCAGCUUGGACUUGAGGUAAAUUGAAUACUUUACAACUGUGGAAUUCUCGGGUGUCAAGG,-0.199
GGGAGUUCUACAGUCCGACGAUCUGUGCUACACAUCGUAUGUACCGAAUCGGGGUUUUUUUGGGGUUUUUUUGGGGUUUUUGGGGAAAGUAUUAUGUUACGCCGUUCGGAUCUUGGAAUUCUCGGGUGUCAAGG,-0.0495
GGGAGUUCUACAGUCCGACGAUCGUCCUGUGCUACACAUCGUAUGUACCGAAUCGGGGAGGGGAAAGGGGAAAAAAAGGGGAAAGUAUUAUGUUACGCCGUUCGGAUCUGCACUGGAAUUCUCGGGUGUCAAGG,1.25

# Sample 3
# SMILES: CNCc1ccccc1-c1csc([C@@H](C)Nc2nc(C)nc3cc(OC)c(OC)cc23)c1
# Read-out: cell-free assay
# Method: competition with immobilised ligand
# Tested at: 1 µM
target,remaining binding [%]
"MAP3K3 (Homo sapiens, UniProt Q99759)",83
"CSNK2A1 (Homo sapiens, UniProt P68400)",83
"SGK1 (Homo sapiens, UniProt O00141)",81
"PRKCQ (Homo sapiens, UniProt Q04759)",100
"BMPR1A (Homo sapiens, UniProt P36894)",91
"PIK3CA (Homo sapiens, UniProt P42336)",69
"IKBKB (Homo sapiens, UniProt O14920)",94
"IRAK3 (Homo sapiens, UniProt Q9Y616)",75
"CLK2 (Homo sapiens, UniProt P49760)",98
"EGFR (Homo sapiens, UniProt P00533, del747-750/T751S)",50
"EPHB3 (Homo sapiens, UniProt P54753)",100
"RIPK4 (Homo sapiens, UniProt P57078)",91
"MAPK12 (Homo sapiens, UniProt P53778)",100
"CDK15 (Homo sapiens, UniProt Q96Q40)",100
"MAK (Homo sapiens, UniProt P20794)",100
"HIPK2 (Homo sapiens, UniProt Q9H2X6)",86

# Sample 4
# Target: Prothrombin, mature alpha-thrombin (F2, Homo sapiens, UniProt P00734)
# Method: aptamer microarray, sandwich
# Molecule type: DNA with 2'F-ANA
# Medium: in vitro
# Tested at: 200 nM
# Setting: whole 15-mer aptamer, many near background
# Together with: Cy3 exosite-II aptamer, 400 nM
# Reading: higher = stronger binding
# Sequence: GGTTGGTGTGGTTGG
Modification,mean fluorescence intensity [a.u.]
2'F-ANA at 1 3 4 6 7 10 11 12 14,52.2
2'F-ANA at 1 5 6 8 9 10 14,47.9
2'F-ANA at 5 6 7 8 9 12,184
2'F-ANA at 1 2 4 5 6 7 9 10 11 12 14 15,59.4
2'F-ANA at 1 2 4 8 10 13 14 15,47.2
2'F-ANA at 1 2 5 6 11 12 15,79.5
2'F-ANA at 2 5 6 8 9 13 15,81.8
2'F-ANA at 4 10 11 12 13 14,170

# For quick reference, copied from above (sample 2):
Sequence,log2 enrichment
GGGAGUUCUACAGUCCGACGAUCUGCUUCAUCGCCUUGUGCUCCUGCCCCUGGGAGCUGUGGAUCCCAGAUCCAGAUGACAGCCCACCUUGCUGGCAGGAUGCGCCAAUCCCCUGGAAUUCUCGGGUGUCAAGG,-1.05
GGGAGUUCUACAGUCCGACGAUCCAAGUCCUGUGCUACACAUCGUAUGUACCGAAUCGGGGUGGGGUGGGGAAAGGGGAAAGUAUUAUGUUACGCCGUUCGGAUCUGCACUUCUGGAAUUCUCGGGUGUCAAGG,2.61
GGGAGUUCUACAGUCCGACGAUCUGUGCUACACAUCGUAUGUACCGAAUCGGGGUUUUUUUGGGGUUUUUUUGGGGUUUUUGGGGAAAGUAUUAUGUUACGCCGUUCGGAUCUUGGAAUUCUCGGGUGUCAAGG,-0.0495
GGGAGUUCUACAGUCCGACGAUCGUCCUGUGCUACACAUCGUAUGUACCGAAUCGGGGAGGGGAAAGGGGAAAAAAAGGGGAAAGUAUUAUGUUACGCCGUUCGGAUCUGCACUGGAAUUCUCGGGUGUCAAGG,1.25
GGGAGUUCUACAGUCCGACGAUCACCACUGCUACAGUCACCACCACCCAGGCCUCCUAUGCAGCUCAGUCUGCAUAUGGCACUCAGCCUGCUUAUCCAGCCUAUGGGCAGCAGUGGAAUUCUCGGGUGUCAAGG,-0.225
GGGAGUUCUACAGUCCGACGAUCGCAGGAAGUAAAAACAAAUGGAAAUGCUUCGGAUAGUGGCAGGGGUGGGGGUUGCUAAGGAAAGGGUGGGAUAAAAGUGGGUAAAGAGUUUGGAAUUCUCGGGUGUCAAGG,1.45
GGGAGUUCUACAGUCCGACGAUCGAAGAUUGGCUUAAAAUGGCUACUGUGAUGGGAACAGUGUCUUAGGGAGAUGCAGCUUGGACUUGAGGUAAAUUGAAUACUUUACAACUGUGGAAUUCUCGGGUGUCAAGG,-0.199
